Experimental data of several laboratories.
Each line is one published result; not all experiments were run side by side. Values joined by “and” are separate records of one study, mostly repeats; a detail may differ. ± gives the spread as reported.

With C#CCO/N=C(\C(=O)N[C@@H]1C(=O)N(OS(=O)(=O)O)C1(C)C)c1csc(N)n1 the MIC was no more than 0.03 µg/mL (Providencia rettgeri; agar dilution; ATCC 31052, susceptible).
For Fc1ccc2c(c1)c1nc3ccc(Br)cc3c-1cn2Cc1cn(-c2ccccc2I)nn1, the fold change was 1.59 (Giardia duodenalis trophozoites; UHPLC-Q-TOF-MS metabolomics, item: 1-heptadecanoyl-sn-glycero-3-phosphocholine; IC50, 0.1535 h; relative to: 0.25% DMSO).
Cc1cccc2c1N(C(=O)n1ccnn1)CC2 gave a hypocotyl length of 4.89 mm (Arabidopsis thaliana; wild type, seedlings; 100 µM, continuous red light, together with: 0.3 µM karrikin KAR2).
C=C(NC(=O)c1csc(-c2nc3c(cc2O)-c2nc(cs2)C(=O)NC(C(C)O)C(=O)NC(=C(C)OC)c2nc(cs2)C(=O)NC2c4nc(cs4)C(=O)NC(COC(=O)c4c5c6c(cccc6n4O)COC(=O)C(OC4CC(C)(O)C(N(C)C)C(C)O4)C2OC5)c2nc-3cs2)n1)C(N)=O (stereo not shown): “lung bacterial load” 6.81 log10 CFU/lung (Streptococcus pneumoniae; -4, immunocompromised mice, lung; 2 mg/kg/day once daily, 24 h post-dose).
FC(F)(F)c1cccc(CNc2nc(NC3CCN(Cc4ccccc4)CC3)c3nc[nH]c3n2)c1 — result for “log2 fold change”: 0.206 (Cryptococcus neoformans; RNA-seq, item: PLC2 (CNAG_02968) mRNA; 48 µg/mL, 3 h; relative to: untreated wild type).
CC(C)[C@H](NC(=O)OCc1ccccc1)C(=O)N(C)[C@@H](Cc1ccc(OC(C)(C)C)cc1)C(=O)Nc1ccccc1C(=O)N[C@@H](C)C(=O)O gave a fold potentiation of 16 (Candida albicans; potentiator, broth microdilution; ATCC 90029; 8.0 µg/mL, together with: amphotericin B; relative to: amphotericin B alone).
C=C[C@]1(C)C[C@@H](OC(=O)CSc2ccc(NC(=O)c3ccco3)cc2)[C@]2(C)[C@H](C)CC[C@]3(CCC(=O)[C@H]32)[C@@H](C)[C@@H]1O — result for “EC50 of AUC24h/MIC”: 7530 h (Mycoplasma gallisepticum; sigmoid Emax model; infected chickens).
Cc1ccccc1-n1nc(C(=O)Nc2cccc(C(N)=O)c2)cc1-c1cccnc1 has an inhibition of less than 50% (Dengue virus; viral replication, inhibitor, imaging; Vero, DENV2; 12.5 µM).
CC(C)(C)NCC(SS(=O)(=O)O)c1ccccc1 (stereo not shown): “female worms recovered” 3 worms per mouse and 1 worms per mouse (Schistosoma mansoni; mice; 100 mg/kg x2 from day 42, perfusion day 56).
With Cc1ccc(N(C)C(=O)[C@H](Cc2ccccc2)NC(=O)Cc2c[nH]c3ccc(O)cc23)cc1 the EC50 was 50 ± 20 nM (human immunodeficiency virus 1; viral replication; NL4-3 with subtype AE gag/pol).
c1ccc2c(Cc3c[nH]c4ccccc34)c[nH]c2c1 gave an IC50 of greater than 50000 nM (Clostridioides difficile; microbial growth, absorbance).
For COC1C=COC2(C)Oc3c(C)c(O)c4c(c3C2=O)C2=NC3(CCN(CC(C)C)CC3)NC2=C(NC(=O)C(C)=CC=CC(C)C(O)C(C)C(O)C(C)C(OC(=O)Nc2cccnn2)C1C)C4=O (stereo not shown), the IC50 was 9 nM (Mycobacteroides abscessus; bacterial growth; subsp. massiliense clinical isolate; slow grower).
For N=C(N)NCCC[C@@H]1NC(=O)[C@H](CCCNC(=N)N)NC(=O)[C@@H](CCCNC(=N)N)NC(=O)[C@@H](CCCNC(=N)N)NC(=O)[C@@H](C(c2ccccc2)c2ccccc2)NC(=O)[C@H](Cc2c[nH]c3ccccc23)NC(=O)[C@@H](C(c2ccccc2)c2ccccc2)NC1=O, “reduction of viable cells” read greater than 95% (Candida albicans; ATCC 60193; 4 x MIC, 12 h).

For quick reference, copied from above:
FC(F)(F)c1cccc(CNc2nc(NC3CCN(Cc4ccccc4)CC3)c3nc[nH]c3n2)c1 — result for “log2 fold change”: 0.206 (Cryptococcus neoformans; RNA-seq, item: PLC2 (CNAG_02968) mRNA; 48 µg/mL, 3 h; relative to: untreated wild type).
